Published values from different studies.
Compare with care: the assays were run in different laboratories. Several values in a cell are separate wells, animals, samples, runs or records. Numbers after ± are the reported error.
UniProt P10632, sequence (whole entry, looked up): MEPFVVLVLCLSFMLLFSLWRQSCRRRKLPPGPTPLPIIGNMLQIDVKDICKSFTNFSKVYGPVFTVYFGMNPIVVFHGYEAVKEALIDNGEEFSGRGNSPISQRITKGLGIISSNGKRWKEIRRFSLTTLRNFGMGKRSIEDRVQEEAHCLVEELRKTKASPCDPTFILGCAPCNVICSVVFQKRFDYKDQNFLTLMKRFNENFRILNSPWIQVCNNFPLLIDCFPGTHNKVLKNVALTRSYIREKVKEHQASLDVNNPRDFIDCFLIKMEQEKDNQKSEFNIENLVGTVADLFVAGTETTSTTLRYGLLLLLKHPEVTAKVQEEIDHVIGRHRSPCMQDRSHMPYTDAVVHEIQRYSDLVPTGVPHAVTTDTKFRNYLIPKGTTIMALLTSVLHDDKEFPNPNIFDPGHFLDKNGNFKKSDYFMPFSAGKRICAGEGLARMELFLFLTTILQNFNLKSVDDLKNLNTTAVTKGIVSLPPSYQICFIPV

SMILES | target or system | assay | system | conditions | how to read | measurement | result
N#C[C@@H]1CC(F)(F)CN1C(=O)CNC(=O)c1ccnc2c(NC(=O)[C@@H](N)CCCCNC(=O)CCOCCOCCOCCOCCOCCOCCNC(=O)CN3CCN(CC(=O)[O-])CCN(CC(=O)[O-])CCN(CC(=O)[O-])CC3)cccc12.[177Lu+3] | U-87 MG tumour model | – | host not given, heart | 4 h, tumour-bearing | – | tracer uptake | 0.06 %ID/g
C=C(NC(=O)c1csc(-c2nc3c(cc2O)-c2nc(cs2)C(=O)NC(C(C)O)C(=O)NC(=C(C)OC)c2nc(cs2)C(=O)NC2c4nc(cs4)C(=O)NC(COC(=O)c4c5c6c(cccc6n4O)COC(=O)C(OC4CC(C)(O)C(N(C)C)C(C)O4)C2OC5)c2nc-3cs2)n1)C(N)=O (stereo not drawn) | – | – | ICR mice, Streptococcus pneumoniae ATCC 49169 infected, immunocompromised, blood | intravenous, 8 mg/kg/day three times daily | – | MRT(0-t) | 8.67 h
CCN(CC)CC#CCNc1ccnc2cc(Cl)ccc12 | Salmonella typhimurium | mini-Ames test | TA1535 | 250.0 µg/well, with rat liver S9 | – | revertants | 2 revertants/well
CCc1c(-c2ccc3[nH]ncc3c2)cnc(N)c1-c1ccc(O)cc1 | CHP-212 resistant sublines (heterozygous USP7 V517F) | cell viability | – | 50 µM | – | viability | 6.98% and 9.96%
CC(C)OCCOCc1ccc(OCC(O)CN(N=O)C(C)C)cc1 (stereo not drawn) | Salmonella typhimurium | Ames test | TA100 | 50 µg/plate, 30 % hamster S9 | relative to: solvent control | revertant fold increase | 1.2 fold
COC1CN([C@H]2CC[C@H]([C@@]3(C)Oc4c(Cl)cc(C(=O)NCc5c(SC)cc(C)[nH]c5=O)c(C)c4O3)CC2)C1 | – | RNA-seq, refers to: SCARF2 | human, whole blood | dose not given, 24 h | relative to: pretreatment baseline | log2 fold change | 1.1
O=C1C2CC3CC1CC(C(=O)N1CCN(c4ccc([N+](=O)[O-])c5ncccc45)CC1)(C3)C2 | Salmonella typhimurium | Ames test | TA97a | 0.13 µg/well, with S9 | relative to: vehicle | revertant fold increase | 0.9
Cc1nc(N)nc2c1C(=O)N[C@@H](c1ccc(F)cc1-c1cccc(O[11CH3])n1)C2 | – | ex vivo biodistribution | mice, MDA-MB-231 subcutaneous xenograft, brain | 60 min post-injection, baseline, vehicle pre-treatment | – | tracer uptake | 5 ± 0.8 %ID
O=C(Nc1cnccc1-c1ccc([18F])cc1)c1ccnc(NC(=O)C2CC2)c1 | – | ex vivo gamma counting | FVB/NJ mice, both sexes, cerebellum | intravenous, 120 min, mean, P-gp inhibitor pretreatment, together with: tariquidar 15 mg/kg iv | – | SUV | 0.23
CNC(=O)C1CCCN(C(=O)C2CC3CCC2N3C(=O)[C@@H]2C[C@@H](O)CN2C(=O)NCc2cccc(Cl)c2F)C1 (mixture of isomers) | Cytochrome P450 2C8 (CYP2C8, Homo sapiens, UniProt P10632) | preincubation with NADPH | human | 0.617 µM | relative to: negative control | remaining activity | 97.2% and 82.7% and 77.4%
Cc1ncsc1-c1ccc(C(C)NC(=O)C2CC(O)CN2C(=O)C(NC(=O)CCCCCCCCCCN2CCCC(Nc3ncc(Cl)c(Nc4ccccc4S(=O)(=O)C(C)C)n3)C2)C(C)(C)C)cc1 (stereo not drawn) | 22Rv1 | RNA-seq, refers to: SAMD12 mRNA | – | concentration not given | relative to: DMSO | log2 fold change | -1.2
C=CC(=O)Nc1cccc(Cn2ncc3cnc(Nc4cnn(CCOC)c4)nc32)c1 | human VEGFR2 | KINOMEscan | – | 100 nM | – | binding | 16%

A few entries again:
SMILES | target or system | assay | system | conditions | how to read | measurement | result
C=C(NC(=O)c1csc(-c2nc3c(cc2O)-c2nc(cs2)C(=O)NC(C(C)O)C(=O)NC(=C(C)OC)c2nc(cs2)C(=O)NC2c4nc(cs4)C(=O)NC(COC(=O)c4c5c6c(cccc6n4O)COC(=O)C(OC4CC(C)(O)C(N(C)C)C(C)O4)C2OC5)c2nc-3cs2)n1)C(N)=O (stereo not drawn) | – | – | ICR mice, Streptococcus pneumoniae ATCC 49169 infected, immunocompromised, blood | intravenous, 8 mg/kg/day three times daily | – | MRT(0-t) | 8.67 h
CCN(CC)CC#CCNc1ccnc2cc(Cl)ccc12 | Salmonella typhimurium | mini-Ames test | TA1535 | 250.0 µg/well, with rat liver S9 | – | revertants | 2 revertants/well
